# Measured values pooled from the literature.
# Lines come from different studies, so protocols differ. ± marks the error that the study gave.
SMILES,cell line,test,conditions,scale,quantity,value
NC1=NC2(CCNCC2)N(c2cccc(Cl)c2)C(N)=N1,MDCK,"microscopy, altered cell morphology",,,minimum cytotoxic concentration,> 100 µM
C=C(C[C@H](N)C(=O)O)C(=O)NCc1ccc([N+](=O)[O-])cc1,MDA-MB-231,,24 h,relative to: vehicle,concentration increasing cytotoxicity,320 µM
O=C(NC(=O)c1c(F)cccc1F)Nc1cc(Cl)c(F)c(Cl)c1F,Caco-2,Hoechst and PI staining,"25 µM, 48 h",relative to: untreated,apoptotic cells ratio,3.9
CCCCC(CC)COP(=O)(Oc1ccccc1)Oc1ccccc1 (stereo not shown),human iPSC-derived cardiomyocytes,"mitochondrial membrane potential, item: JC-10 granules",30 min,,point of departure,< 30 µM
CN(CC(=O)NCCN1CCOCC1)S(=O)(=O)NCc1cccc(Oc2ccccc2)c1.Cl,HG23 norovirus replicon cells,,48 h,,TD50,235 ± 45 µM
Cc1[nH]ccc2c1[nH]c1cc(=O)ccc12,U87 cells,"nuclear area and membrane integrity, high content imaging",72 h,,lowest cytotoxic concentration,> 10 µM
Cc1cc2c(cc1N1C(=O)c3cccc4c(CCCO)ccc(c34)C1=O)n(C)c(=O)n2C,MDA-MB-231,trypsin-EDTA digestion vs solvent extraction,"concentration not given, 6 h",,nonspecific binding,50%
COc1cccc2c1C(=O)c1c(O)c3c(c(O)c1C2=O)C[C@@](O)(C(=O)CO)C[C@@H]3O[C@H]1C[C@H](N)[C@H](O)[C@H](C)O1,HCT-8,"flow cytometry, item: positive cells","10 µg/mL, 4 h, 10% FBS",,cellular uptake,57.8%
Cc1ccc(NC(=O)c2cc3c(=O)n4cccc(C)c4nc3n2C)cc1Cl,Vero E6,MTT,,,IC50,64.4 ± 4.91 µM
CN(CCCC(=O)O)N=O,HepaRG 3D spheroids,cell viability,"concentration not given, 24 h",relative to: vehicle,ATP level,81%
CC[C@H](C)[C@H](NC(=O)[C@@H](NC(=O)[C@H](CS)NC(=O)[C@H](C)NC(=O)[C@H](CCCNC(=N)N)NC(=O)[C@H](CCCNC(=N)N)NC(=O)[C@H](CC(N)=O)NC(=O)[C@H](CCCNC(=N)N)NC(=O)[C@H](C)NC(=O)[C@H](CS)NC(=O)[C@H](CC(C)C)NC(=O)[C@@H](NC(=O)[C@@H](NC(=O)[C@H](CS)NC(=O)[C@H](CCCCN)NC(=O)[C@@H](N)CCCNC(=N)N)C(C)C)[C@@H](C)CC)C(C)C)C(=O)N[C@@H](CC(C)C)C(=O)N[C@@H](CS)C(=O)N[C@@H](CCCNC(=N)N)C(=O)O,human red blood cells,,"128 µg/mL, 3 h, 37 °C",relative to: Triton X-100,hemolysis,3.54%
COc1ccc(-c2cc(=O)c3c(O)cc(O[C@@H]4O[C@H](CO[C@@H]5O[C@@H](C)[C@H](O)[C@@H](O)[C@H]5O)[C@@H](O)[C@H](O)[C@H]4O)cc3o2)cc1O,A549,"cell viability, MTS","3 days, 90% cells viable",,maximum non-toxic concentration,1710 ± 2.11 µM
O=Cc1cc(Cn2ccc(=O)[nH]c2=O)ccc1O,HEL fibroblasts,"cell morphology, microscopy",,,minimum cytotoxic concentration,≥ 100 µM
C[C@@H]1CCO[C@H]2Cn3cc(C(=O)NCc4ccc(F)cc4F)c(=O)c(O)c3C(=O)N12,hCMEC/D3,,"5 µM, 1 h, in antiretroviral combination",,intracellular concentration,14.7 ± 1.41 ng/mL
O=C(Cc1ccccc1Nc1c(Cl)cccc1Cl)Oc1ccc(-c2cc(=S)ss2)cc1,HepG2 and LS180,"EROD activity, inhibitor","24 h, averaged over cell lines, added: benzo[a]pyrene 1 µM",,IC50,50 µM
O=NN1CCN(C2CCCC2)CC1,"HepaRG, 2D culture",flow cytometry micronucleus,"highest tested concentration, 24 h, plus 3 days hEGF",relative to: vehicle,relative survival,61.3%
O=C(c1cc(Cc2n[nH]c(=O)c3ccccc23)ccc1F)N1CCN(C(=O)C2CC2)CC1,MDA-MB-231,,72 h,relative to: vehicle,concentration increasing cytotoxicity,320 µM
CCN(N=O)C(C)C,HepaRG 3D spheroids,"DNA damage, item: % tail DNA",24 h,relative to: vehicle,lowest effective concentration,2500 µM
COCCN1C(N)=NC(N)=NC12CCN(S(=O)(=O)c1ccccc1)CC2,MDCK,"microscopy, altered cell morphology",,,minimum cytotoxic concentration,> 100 µM

# For quick reference, copied from above:
SMILES,cell line,test,conditions,scale,quantity,value
Cc1[nH]ccc2c1[nH]c1cc(=O)ccc12,U87 cells,"nuclear area and membrane integrity, high content imaging",72 h,,lowest cytotoxic concentration,> 10 µM
Cc1cc2c(cc1N1C(=O)c3cccc4c(CCCO)ccc(c34)C1=O)n(C)c(=O)n2C,MDA-MB-231,trypsin-EDTA digestion vs solvent extraction,"concentration not given, 6 h",,nonspecific binding,50%
